Assay results collected from several papers.
Lines come from different studies, so protocols differ.
Organism: Staphylococcus aureus

CC[C@H](C)[C@H](NC(=O)[C@H](CCCNC(=N)N)NC(=O)[C@@H]1CCCN1C(=O)[C@H](Cc1c[nH]cn1)NC(=O)[C@@H]1CCCN1C(=O)[C@@H]1CCCN1C(=O)[C@H](CCCNC(=N)N)NC(=O)[C@@H]1CCCN1C(=O)[C@H](CCC(N)=O)NC(=O)[C@@H]1CCCN1C(=O)[C@@H](NC(=O)[C@H](Cc1ccc(O)cc1)NC(=O)[C@@H](NC(=O)[C@@H]1CCCN1C(=O)[C@H](CCCNC(=N)N)NC(=O)[C@H](CC(N)=O)NC(=O)[C@H](CC(N)=O)NC(=O)CN)C(C)C)[C@@H](C)CC)C(=O)O — MIC (broth microdilution; USA300 LAC; 37 °C): > 100 µM
CC[C@H](C)[C@H](NC(=O)[C@H](CCCNC(=N)N)NC(=O)[C@@H]1CCCN1C(=O)[C@@H]1CCCN1C(=O)[C@H](CC(C)C)NC(=O)[C@H](CCCNC(=N)N)NC(=O)[C@@H]1CCCN1C(=O)[C@@H]1CCCN1C(=O)[C@H](Cc1ccccc1)NC(=O)[C@H](Cc1ccccc1)NC(=O)[C@@H]1CCCN1C(=O)[C@@H]1CCCN1C(=O)[C@@H]1CCCN1C(=O)[C@H](CCCNC(=N)N)NC(=O)[C@@H]1CCCN1C(=O)[C@H](CCCNC(=N)N)NC(=O)[C@@H]1CCCN1C(=O)[C@H](CC(C)C)NC(=O)[C@H](Cc1ccc(O)cc1)NC(=O)[C@@H]1CCCN1C(=O)[C@@H]1CCCN1C(=O)[C@H](CCCNC(=N)N)NC(=O)[C@@H]1CCCN1C(=O)[C@H](CCCNC(=N)N)NC(=O)[C@H](CCCNC(=N)N)NC(=O)[C@@H](N)CCCNC(=N)N)C(=O)N1CCC[C@H]1C(=O)N1CCC[C@H]1C(=O)NCC(=O)N[C@@H](Cc1ccccc1)C(=O)N1CCC[C@H]1C(=O)N1CCC[C@H]1C(=O)N[C@@H](CCCNC(=N)N)C(=O)N[C@@H](Cc1ccccc1)C(=O)N1CCC[C@H]1C(=O)N1CCC[C@H]1C(=O)N[C@@H](CCCNC(=N)N)C(=O)N[C@@H](Cc1ccccc1)C(=O)N1CCC[C@H]1C(N)=O — MIC (broth microdilution; USA300 JE2 wild type; 18 to 20 h): 4 µg/mL
CC(C)[C@H](NC(=O)[C@H](CO)NC(=O)[C@H](Cc1c[nH]cn1)NC(=O)[C@H](Cc1ccccc1)NC(=O)[C@H](C)NC(=O)[C@H](CCCCN)NC(=O)CNC(=O)[C@H](Cc1ccccc1)NC(=O)CN)C(=O)N[C@@H](CO)C(=O)N[C@@H](CC(N)=O)C(=O)N[C@@H](Cc1ccccc1)C(=O)N[C@@H](C)C(=O)N[C@@H](CCCCN)C(=O)N[C@@H](CCCCN)C(=O)N[C@@H](Cc1c[nH]cn1)C(=O)N[C@@H](CCCCN)C(=O)N[C@H](C(=O)N[C@@H](C)C(N)=O)[C@@H](C)O — MIC (broth microdilution; USA300 LAC; 37 °C): > 100 µM
CC(C)C[C@H](NC(=O)[C@H](C)NC(=O)[C@H](CCCCN)NC(=O)[C@H](CC(C)C)NC(=O)[C@H](CC(C)C)NC(=O)[C@H](CCCCN)NC(=O)[C@H](CCCCN)NC(=O)[C@H](CC(C)C)NC(=O)[C@H](CC(C)C)NC(=O)[C@H](CCCCN)NC(=O)[C@H](CC(C)C)NC(=O)[C@H](CC(C)C)NC(=O)[C@@H](N)CCCCN)C(=O)NCC(N)=O — MIC (SH1000 GFP-expressing, nutrient broth; 20 h, 37 °C): 33 µM
CN[C@H](CC(C)C)C(=O)N[C@H]1C(=O)N[C@@H](CC(N)=O)C(=O)N[C@H]2C(=O)N[C@H]3C(=O)N[C@H](C(=O)N[C@H](C(=O)O)c4cc(O)cc(O)c4-c4cc3ccc4O)[C@H](O)c3ccc(c(Cl)c3)Oc3cc2cc(c3O[C@@H]2O[C@H](CO)[C@@H](O)[C@H](O)[C@H]2O[C@H]2C[C@](C)(N)[C@H](O)[C@H](C)O2)Oc2ccc(cc2Cl)[C@H]1O — MIC (ATCC 29213 MSSA): 1 µg/mL
actinomycin Y3 — MIC (broth microdilution; ATCC 6538; 16 to 48 h): > 9.33 µg/mL
CC[C@H](C)[C@H](NC(=O)[C@H](CC(=O)O)NC(=O)[C@H](Cc1ccccc1)NC(=O)[C@H](CC(C)C)NC(=O)CN)C(=O)N[C@H](C(=O)N[C@@H](CCCCN)C(=O)N[C@@H](CCCCN)C(=O)N[C@H](C(=O)N[C@H](C(=O)NCC(=O)N[C@@H](C)C(=O)N[C@@H](CC(C)C)C(=O)N[C@@H](CCCCN)C(N)=O)C(C)C)C(C)C)C(C)C — MIC (SH1000 GFP-expressing, nutrient broth; 20 h, 37 °C): 33 µM
O=c1cc(C(F)(F)F)[nH]c2cc(C(F)(F)F)cc(N[C@H]3CC[C@H](C(F)(F)F)CC3)c12 — MIC: < 0.125 µg/mL
CC(C)[C@H](N)C(=O)N[C@@H](CS)C(=O)N1CCC[C@H]1C(=O)N[C@@H](Cc1c[nH]cn1)C(=O)N[C@@H](CCCNC(=N)N)C(=O)N[C@@H](CS)C(=O)O — MIC (broth microdilution; MTCC 96; 37 °C): 110 µg/mL
CCCCCCCCCC1CC(=O)c2c(O)cc(O)cc2O1 (stereo not shown) — MIC (broth microdilution; MRSA NRS70): 3.13 to 6.25 µg/mL
O=[N+]([O-])c1ccc(-n2ccnc2)c([N+](=O)[O-])c1 — MIC (microbial growth; ATCC25923): 125 µg/mL
CC[C@H](C)[C@H](NC(=O)[C@H](CC(C)C)NC(=O)[C@@H]1CCCN1C(=O)[C@H](Cc1ccccc1)NC(=O)[C@H](CC(C)C)NC(=O)[C@@H](N)Cc1ccccc1)C(=O)N[C@H](C(=O)N[C@@H](CO)C(=O)N[C@@H](Cc1ccccc1)C(=O)N[C@@H](CC(C)C)C(=O)N[C@@H](CO)C(=O)N[C@@H](CCCCN)C(=O)N[C@H](C(=O)N[C@@H](CC(C)C)C(=O)O)C(C)C)[C@@H](C)O — MIC (broth microdilution; USA300 LAC; 37 °C): 50 µM
CC[C@H](C)[C@H](NC(=O)[C@H](Cc1c[nH]cn1)NC(=O)[C@H](Cc1c[nH]cn1)NC(=O)[C@H](Cc1ccccc1)NC(=O)[C@@H](N)Cc1ccccc1)C(=O)N[C@@H](Cc1ccccc1)C(=O)N[C@@H](CCCNC(=N)N)C(=O)NCC(=O)N[C@@H](CCCCN)C(=O)N[C@H](C(=O)N[C@@H](Cc1c[nH]cn1)C(=O)N[C@H](C(=O)NCC(=O)N[C@@H](CCCCN)C(=O)N[C@H](C(=O)N[C@H](C(=O)N[C@@H](Cc1c[nH]cn1)C(=O)N[C@@H](CCCNC(=N)N)C(=O)N[C@@H](CC(C)C)C(=O)N[C@H](C(=O)N[C@H](C(=O)NCC(N)=O)[C@@H](C)O)C(C)C)[C@@H](C)CC)[C@@H](C)O)C(C)C)C(C)C — MIC (broth microdilution; ATCC 25923; 18 h, 37 °C): 3.1 µg/mL

A few entries again:
CC[C@H](C)[C@H](NC(=O)[C@H](CC(=O)O)NC(=O)[C@H](Cc1ccccc1)NC(=O)[C@H](CC(C)C)NC(=O)CN)C(=O)N[C@H](C(=O)N[C@@H](CCCCN)C(=O)N[C@@H](CCCCN)C(=O)N[C@H](C(=O)N[C@H](C(=O)NCC(=O)N[C@@H](C)C(=O)N[C@@H](CC(C)C)C(=O)N[C@@H](CCCCN)C(N)=O)C(C)C)C(C)C)C(C)C — MIC (SH1000 GFP-expressing, nutrient broth; 20 h, 37 °C): 33 µM
